# Measurements from different studies.
# Parts stem from different laboratories: compare values within a part only.

# Study 1 — technique: protein binding microarray; molecule type: double-stranded DNA, one strand shown; medium: in vitro; concentration: not given; baseline: not given; direction: higher = stronger binding
# Target: Histone acetyltransferase KAT6A, winged helix 1, GST fusion (KAT6A, Homo sapiens, UniProt Q92794, residues 1-85)
# Notes: 8-mer, flanks averaged, mean of 2 arrays, mostly near background
# Construct (chain): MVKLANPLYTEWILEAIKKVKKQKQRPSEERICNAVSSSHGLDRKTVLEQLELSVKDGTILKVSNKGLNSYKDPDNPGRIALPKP
Strand,E-score
GCGGTGCC,0.332
TAGACCGA,-0.016
CGGAATTA,0.094
ATGATACG,-0.082
AGAGGCGC,0.266
AAACAATT,-0.0899
CCACACGA,-0.0735
AGGTAGTC,-0.186
AAGCGCCG,0.433
ATGACTCA,-0.0837
AGGCCAGG,0.0234
CGAGTAGA,0.00246
CTTTTAAA,0.0437
ATCCCATA,-0.0982
ATAGCTAA,-0.0978
CACCCGCG,0.424
TATCTGCA,-0.214
CGTTCATA,0.0771
TACTACAA,0.0106
AACTTGGA,0.0781
ACCCTATC,-0.19
ACTGCCCT,-0.0127
TAATCGGA,-0.0401
ATCCTCAC,-0.174
AGGTGCTG,-0.223

# Study 2 — technique: RNA Bind-n-Seq; molecule type: RNA; medium: in vitro; concentration: 200 nM; notes: whole 134-nt RNA, ends assumed; added: 150 mM KCl; baseline: input library; direction: higher = stronger binding
# Target: Ras GTPase-activating protein-binding protein 1, full length (G3BP1, Homo sapiens, UniProt Q13283)
# Chain of UniProt Q13283 (whole entry, looked up): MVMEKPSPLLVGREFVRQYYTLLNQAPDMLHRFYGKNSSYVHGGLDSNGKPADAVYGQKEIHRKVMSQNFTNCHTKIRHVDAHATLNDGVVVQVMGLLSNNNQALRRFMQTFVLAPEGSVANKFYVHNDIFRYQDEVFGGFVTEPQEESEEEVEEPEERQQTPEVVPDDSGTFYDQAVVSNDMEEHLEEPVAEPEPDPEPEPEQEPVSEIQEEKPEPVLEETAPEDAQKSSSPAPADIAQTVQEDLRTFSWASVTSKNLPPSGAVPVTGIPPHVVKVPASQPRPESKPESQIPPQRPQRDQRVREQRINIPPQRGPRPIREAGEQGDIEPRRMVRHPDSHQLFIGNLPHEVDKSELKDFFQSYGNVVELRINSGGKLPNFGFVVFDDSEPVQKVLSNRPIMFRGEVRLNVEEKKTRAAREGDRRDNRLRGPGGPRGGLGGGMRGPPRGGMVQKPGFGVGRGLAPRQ
# Shared flanks, not repeated: GGGAGUUCUACAGUCCGACGAUC … UGGAAUUCUCGGGUGUCAAGG
Strand,log2 enrichment
CCUGUGCUACACAUCGUAUGUACCGAAUCGGGGUUUUUUUGGGGUUUUUGGGGUUUGGGGAAAGUAUUAUGUUACGCCGUUCGGAUCUGC,0.148
ACCAUGCAGGUGGGCAUCUUUGGGAAGUGGGGCAAGGGGGGGAUAGGGAGGGGGGUAACACUUUGGGAACAGGUGGUCGCAGGUCGUUUC,1.58
UGGGCCUGGUGGCAUGCGGGGAGGAAGAGGUGGCCUCAUGGAUCGUGGUGGUCCCGGUGGAAUGUUCAGAGGUGGCCGUGGUGGAGACAG,0.832
CUGUGCUACACAUCGUAUGUACCGAAUCGGGGCCCCCCCGGGCCCCCCCGGGCCCCCCCGGGAAAGUAUUAUGUUACGCCGUUCGGAUCU,-1.4
UAAAUUUAGAGGAGGAUCUGAUGGAUAUGGCAGUGGACGUGGAUUUGGGGAUGGCUAUAAUGGGUAUGGAGGAGGACCUGGAGGUGGCAA,0.276
UGGCCCUGGUGGCAUGCGGGGAGGAAGAGGUGGCCUCAUGGAUCGUGGUGGUCCCGGUGGAAUGUUCAGACGUGGCCGUGGUGGAGACAG,0.237
CCUCAAGUCCUGUGCUACACAUCGUAUGUACCGAAUCGGGGAGGAGGGAGGGAAAGUAUUAUGUUACGCCGUUCGGAUCUGCACUUCCAG,1.16
UCCUGUGCUACACAUCGUAUGUACCGAAUCGGGGUUUUUUGGUUUUUUGGGUUUUUUGGAAAGUAUUAUGUUACGCCGUUCGGAUCUGCA,-0.475
GUCCUGUGCUACACAUCGUAUGUACCGAAUCGGGGCCCCCGGGCCCCCGGGCCCCCGGAAAGUAUUAUGUUACGCCGUUCGGAUCUGCAC,-0.713
AAGUCCUGUGCUACACAUCGUAUGUACCGAAUCGGGGAAAGGGGAAAGGGGUGGGGAAAGUAUUAUGUUACGCCGUUCGGAUCUGCACUU,0.579
AGUCCUGUGCUACACAUCGUAUGUACCGAAUCGGCCCCCGGGCCCCCGGGGCCCCCGGAAAGUAUUAUGUUACGCCGUUCGGAUCUGCAC,-1.07
UGGCCCUGGUGGCAUGCGGGGAGGAAGAGGUGGCCGCAUGGAUCGUGGUGGUCCCGGUGGAAUGUUCAGAGGUGGCCGUGGUGGAGACAG,0.367
UAACUUUAGAGGAGGAUCUGAUGGAUAUGGCAGUGGACGUGGAUUUGGGGGUGGCUAUAAUGGGUAUGGAGGAGGACCUGGAGGUGGCAA,0.232
ACCAUGCAGGUGGGCAUCUUUGGGAAGUGGGGCAAGGGGGGGAUAGGGAGGGGGGUAACACUUUGGGAACAGGUGUUCCCAGGUCGUUUC,1.09

# Study 3 — technique: RNA Bind-n-Seq; molecule type: RNA; medium: in vitro; concentration: 100 nM; baseline: input RNA pool; direction: higher = stronger binding
# Target: RING finger protein unkempt homolog, zinc fingers 1-6, SBP tag (UNK, Homo sapiens, UniProt Q9C0B0, residues 30-357)
# Chain of UniProt Q9C0B0 (30-357, looked up): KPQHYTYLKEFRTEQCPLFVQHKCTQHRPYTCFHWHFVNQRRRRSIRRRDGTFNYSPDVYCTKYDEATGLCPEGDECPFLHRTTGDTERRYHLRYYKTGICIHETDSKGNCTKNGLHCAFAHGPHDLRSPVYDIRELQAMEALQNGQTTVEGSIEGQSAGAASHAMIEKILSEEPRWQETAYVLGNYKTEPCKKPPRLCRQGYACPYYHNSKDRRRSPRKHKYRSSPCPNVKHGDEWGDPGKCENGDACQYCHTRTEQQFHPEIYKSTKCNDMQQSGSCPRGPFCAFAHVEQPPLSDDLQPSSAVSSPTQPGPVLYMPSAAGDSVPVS
# Notes: RNA with constant flanks, vertebrate orthologous sites, ends assumed
# Shared flanks, not repeated: GGGAGUUCUACAGUCCGACGAUC … CAACAGAGGAUUGAGCAUCA
Strand,bound/input enrichment
ACUGAAAAUGACCUGCUCCGCUAAAAAGUGAAAAUAGUCCCCAAGUAUGAAACUCCUUAAUAACUAUUUUUGAAAUUAAAAAGUUUAAAUUUUGUACACUAUUGCCAGUACACAACUCUA,1.47 ratio
AAGUAUUUAUACUGGCCAAACAUUUUUUACUUAUUUUGUUCCCCCCCCCUUUUUUUUUGGUAGUUCUUGUUACCCACACCAUUUUAUGUCUCCUUCACUGAAGGGCUAGAGUUUUAAGUU,0.902 ratio
UCUUAUCCUGAUUUUAAAAGCCCUUCUUCAUCCCUUUUUUCUUUUUCUUUCCUUUUUUAGGCAUAUGUAGUAAUAAUAGCAGAAAGAUUUAAUUUGGGCAACUUUGAUUCUUCAAAGAGA,0.453 ratio
AAGUAUCCCAGUUUACUGUGUUGAGUUGGCAUUGUACAGAAAUUAACAGCCAUAUUGGUCUAGAAACGUUAAACUUAAUUUUUUUCCAUUUGUACAGGGGUAACACACUGUAUUAAAUAU,0.577 ratio
UCUAUACAAUUUUAAAAAUAUUUCCUCAUAGGAUGCUUUGGCCUUUCAUCUAUUUAAUCAUAGCUACAUAUCUAUUUUUUAUAAGUAGCAGUACACAUUCAAAGGGGUAUUCCUAGCUCA,0.776 ratio
CUGUUGUUAAGCACUGUGUUCCAGACUGUGUCUGACUUGAGUGUGACCUAGGAGAUUUUAUUGUUUUAUUUUAAUGAAGCCCUGCUUGCCGCAGAGCAGCCGGGAGAGCAGCGUCCACCA,0.896 ratio
GAAGAUGGUGGUUGUACAUUAUUCAUUUAGAAAAUAUAAAAAUUCGUUUUGUUUUGAAGCUAGGUAUUAAUUGGAAUAGCUCUUAUACCCAAGACUGGGACAGCUGUGCCCUUCCUUCCU,2.37 ratio
GCUCUAGUUCUUAACAACCGACACUCCUACAAGAUUUAGAAAAAAGUUUACAACAUAAUCUAGUUUACAGAAAAAUCUUGUGCUAGAAUAAUUUUUAAAAGGUAUUUUGAAUACCAUUAA,1.86 ratio
UGUUUGUUUUGCACAUGACAGUGUUUGUAUUGAGGCUCUUCUGAGGAGGAGGGGGUGCUCUACCAGUGGUGCCUGGGUUCCUGGCCUCUAGCGCCCCACCCGCCUCAGCACCCUGCCUGG,0.257 ratio
UGUAGUUUGUUUUUAAUUUCAAGCAAAAAUCUUAUUGUACUUGAAUGUGCCCUGUUUUGUUAGCACACCUAGACUUGCUGUAACUGUACUCAUGUCCCAGUAUGUACGUUCUUUCUAUGA,0.505 ratio
UCGUCCUUCCUUUCUUUUUUUCUUUUUCUUUGUUUUCUUUCUUUCUUUCUUUUUUUUUGGUAGUUGUUCUUACCCACGCCAUUUUACGUCUCCUUCACUGAAGGGCUAGAGUUUUAACUU,2.01 ratio

# Study 4 — technique: protein-binding microarray; molecule type: double-stranded DNA, one strand shown; medium: in vitro; concentration: 250 nM; notes: 60-bp whole probe; added: salmon DNA 0.4 mg/ml; baseline: random background probes; direction: higher = stronger binding; shared flanks, not repeated: GCCTAGCAC … GTCTTGATTCGCTTGACGCTGCTG
# Target: Interferon regulatory factor 7, full length, phosphomimetic (IRF7, Homo sapiens, UniProt Q92985, residues 1-503, S101K/S471D/S472D/S475D/S476D/S477D/S483D/S484D/S487D)
# Chain of UniProt Q92985 (whole entry, unmodified, looked up): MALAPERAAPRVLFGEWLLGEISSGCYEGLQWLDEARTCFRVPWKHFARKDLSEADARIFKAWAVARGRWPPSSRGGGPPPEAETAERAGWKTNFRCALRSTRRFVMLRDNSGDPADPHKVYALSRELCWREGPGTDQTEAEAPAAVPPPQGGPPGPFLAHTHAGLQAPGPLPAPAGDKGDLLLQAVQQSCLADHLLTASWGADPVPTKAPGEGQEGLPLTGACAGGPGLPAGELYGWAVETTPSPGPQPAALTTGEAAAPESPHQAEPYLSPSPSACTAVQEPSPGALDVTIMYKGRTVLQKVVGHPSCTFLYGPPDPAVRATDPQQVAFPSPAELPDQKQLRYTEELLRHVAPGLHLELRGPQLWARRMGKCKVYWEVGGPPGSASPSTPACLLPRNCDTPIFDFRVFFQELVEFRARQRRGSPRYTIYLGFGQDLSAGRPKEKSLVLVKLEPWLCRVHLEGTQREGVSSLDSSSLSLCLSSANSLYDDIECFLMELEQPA
Strand,log fluorescence [z-score]
GACGATATCAGTATCGATACGTGCTAG,0.374
TTAGGACTAGGGACTGGGTTAGTGCTA,0.124
GACGGTCTCCGTCTCGGGACGTGCTAG,-0.272
TCACCTTGGGCTCTAGGACTGTGCTAG,-0.218
GACGGACTGGGACTGTGGACGTGCTAG,-0.661
TCAATACTGATTTCCACACTGTGCTAG,0.73
GACGATTACAGTTTCGAGACGTGCTAG,3.39
GGGCTTTCCCAGCCTGGGGCTGTGCTA,1.29
TTAGATTTGGGGACTGGATTAGTGCTA,-0.241
TTTTTTCTACTTCTCTTTTGGTGCTAG,4.57
TCAATTTTAACCCTTATACTGTGCTAG,0.334
GACGGACTGGGGTATCGGGATGTGCTA,-0.497
TTAGATATCCGACTGGATTAGTGCTAG,-0.348
GACGAACTGCTTCTCCTGACGTGCTAG,-0.185
TCATGATTACATATATGACTGTGCTAG,0.231
GAAAATCCCACATTTGATAAAGTGCTA,0.765
GAGGGTATCGGGTATCGGGACGTGCTA,0.0626
TCATTTATCAAATGTGGGACTGTGCTA,1.28
TCAAAAAATGATTGGTTACTGTGCTAG,0.186
AACTAAAGAGACCACAAAAAGTGCTAG,0.462
GACGGACTGCTACTGCGGACGTGCTAG,-0.699
GACGGTTTCGGTTATCGGGACGTGCTA,10.6
GCCGGTATCGACTTTCGGGACGTGCTA,1.45
TTAGGTATCGGGTTTCGGTCAGTGCTA,3.82
TTAGGTCTCCTTCTCCTTTAGTGCTAG,0.265
